# Published values pooled from the literature.
# A part holds a random share of what one study measured.

# Sample 1 — technique: aptamer microarray, sandwich; form: DNA with 2'F-ANA; matrix: in vitro; concentration: 200 nM; with: Cy3 exosite-II aptamer, 400 nM; reading: higher = stronger binding; oligonucleotide: GGTTGGTGTGGTTGG
# Target: Prothrombin, mature alpha-thrombin (F2, Homo sapiens, UniProt P00734)
# Setting: whole 15-mer aptamer, many near background
Modification,mean fluorescence intensity [a.u.]
2'F-ANA at 6 8 9 11 12 14 15,188
2'F-ANA at 2 3 5 6 12,266
2'F-ANA at 2 4 6 7 10 13 14,61.9
2'F-ANA at 1 4 5 6 7 10 15,47.9
2'F-ANA at 3 6 10 12 13 14,387
2'F-ANA at 1 3 5 6 7 9 10 11,49.6
2'F-ANA at 2 3 4 5 8 9 10 12 14,48.3
2'F-ANA at 3 6 7 8 9 10 11 12 13 15,486
2'F-ANA at 1 2 4 5 6 7 8 9 11 14,45.4
2'F-ANA at 1 2 3 4 5 7 9 14,69.2
2'F-ANA at 4 6 7 11 13 15,146
2'F-ANA at 1 4 10 11 12 14,69.1
2'F-ANA at 1 2 3 8 11 14,108
2'F-ANA at 1 2 3 8 9 10 12 13 15,87.5
2'F-ANA at 1 2 3 7 9 14 15,73
2'F-ANA at 4 6 8 15,338
2'F-ANA at 1 2 4 5 6 11 14 15,46.5
2'F-ANA at 1 3 4 5 7 8 9 12 13 14,50.5
2'F-ANA at 2 3 6 7 8 9 10 11 13 15,303
2'F-ANA at 1 2 3 6 7 12 15,387
2'F-ANA at 1 2 4 5 8 10 12 15,86.5
2'F-ANA at 2 4 5 6 12 13 14,44.2
2'F-ANA at 1 2 4 5 7 8 9 10 11 12 13 15,55
2'F-ANA at 2 8 9 11 13,338
2'F-ANA at 3 4 5 7 9 13,68.6

# Sample 2 — technique: RNA Bind-n-Seq; form: RNA; matrix: in vitro; concentration: not given; reference: input RNA pool; reading: higher = stronger binding
# Target: RING finger protein unkempt homolog, zinc fingers 1-6, GST-SBP tag (UNK, Homo sapiens, UniProt Q9C0B0, residues 30-357)
# Setting: RNA with constant flanks, human-mouse chimeric sites, ends assumed
# Constant ends, left off below: GGGAGUUCUACAGUCCGACGAUC … CAACAGAGGAUUGAGCAUCA
# Residues (chain): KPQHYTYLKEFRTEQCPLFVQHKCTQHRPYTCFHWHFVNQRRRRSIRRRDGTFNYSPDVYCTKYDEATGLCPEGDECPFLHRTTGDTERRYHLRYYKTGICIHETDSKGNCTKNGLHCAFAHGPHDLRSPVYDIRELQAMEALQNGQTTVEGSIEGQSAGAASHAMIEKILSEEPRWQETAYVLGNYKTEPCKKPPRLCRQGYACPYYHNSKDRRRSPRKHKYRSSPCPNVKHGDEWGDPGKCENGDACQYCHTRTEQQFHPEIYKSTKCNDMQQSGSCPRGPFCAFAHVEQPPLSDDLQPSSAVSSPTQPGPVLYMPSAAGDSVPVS
Oligonucleotide,bound/input enrichment [ratio]
UGUAGUUGAUCCCCUGCUCAUUUUUCUCUUUUCUUUCUUUCCUUUAGGAAAAGCCUAAAGAUUAGGUUGUAAGAAAAACAGAAGCCAUGUUUCGAAGACCUGUGUUACAGGUAUUUCGUC,0.053
AUGGAGAAGGAUUCUCUGCCCCGCUUUGUGCGCUCUGAAUUUUAUAAGGAGCUAAUCAAGUAGUCAUCUGGUCAGGCUAUGAAAUCAUGCCCUGUGAUAUUUCCUCCAUCCUUUGUAGCA,0.239
UGUGCAUAUGAUGCUUGAGAUGGUUUUUGCAAAAGCAGAAAUCGCUGCAAGGUCAUUACAAUAGAUAAAAGUGGUAUUUUAAACCUUUGAAAUAAAUGGAUGUAACUGUACCUUGGUACA,0.412
GAUAAGAAAAGCUUGUUGGAGACCCGAUUGCAUGUCACUGGCAGAGACCUGAGGUGUCAAAUAGCUGAAACUUUCGGAUUUCAAGAAAAUUACAUCAAGAUCGUAAUAAAUAAGAAACAG,0.239
UACUCAACUUUCUUGCCACAUUUUGAAUUCCAAGACAUUAUUCCUCCAGAUGACUUCCUAACGAGUGAUGAAGAGCAAGAUUUGGUUUUAUUUGGAAGUUUGAGAGGUCAUGUGGUUGGA,0.197
AGUGUGCAGGAAUUCAUGACCUUUACAAGUCAACUGAUUGUGGAACGCUCGGGGAAAGGCACUAGAGCUUCUGUCAAAGAACAAGACUAUCUUUGCCAUGUCUACGUCCGGAGCGACAGU,0.134
CACACACUCUUCUGCGGGACCCUCAUCUUGCAGGCCCGGGCCUAUGUGGGACCGCACGUGCUAGCAGUGGUGACUCGCACAGGGUUCUGCACGGCAAAAGGGGGCCUGGUGAGCUCCAUC,0.0771
CUUUUUAAGAAGAUAUGUGAUGGGAUCUUCUAUACCCCUCAAUAUUUAAACCCUUCAGUAAUCAGCCUUUUGAAACAUAUGCUGCAGGUGGAUCCCAUGAAGAGGGCCGCAAUAAAAGAU,0.265
CUUUUUAAGAAGAUAUGUGAUGGGAUCUUUUAUACCCCUCAGUACUUAAACCCUUCAGUGAUUAGCCUUUUGAAACAUAUGCUGCAGGUGGAUCCCAUGAAGAGGGCCGCAAUAAAAGAU,0.559
CAGCCUCAGAGCCCUGACUUCCUGGAUAUUACCAACCCCAAAGCCGUAUUAGAAAAUGCAUUGAGAAACUUCGCCUGUCUGACGACUGGAGAUGUGAUUGCUAUCAACUACAAUGAGAAG,0.536
CAGCCUCAGAGCCCAGACUUCCUGGAUAUCACCAACCCUAAAGCGGUAUUAGAAAAUGCAUUGAGAAACUUCGCCUGUCUGACCACCGGAGAUGUGAUUGCUAUCAACUACAAUGAGAAG,0.474

# Sample 3 — technique: protein binding microarray; form: double-stranded DNA, one strand shown; matrix: in vitro; concentration: not given; reference: not given; reading: higher = stronger binding
# Target: Histone acetyltransferase KAT6A, winged helix 2, GST fusion (KAT6A, Homo sapiens, UniProt Q92794, residues 85-181)
# Setting: 8-mer, flanks averaged, mean of 2 arrays, mostly near background
# Construct (chain): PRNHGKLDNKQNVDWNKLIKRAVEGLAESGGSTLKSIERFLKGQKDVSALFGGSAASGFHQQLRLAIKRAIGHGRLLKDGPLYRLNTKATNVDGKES
Oligonucleotide,E-score
CGAAATGA,0.0727
ATGGGATC,-0.0641
AAAGGTGT,-0.206
CAGGGCGG,0.198
CTGATTGA,-0.0297
GATTAATC,-0.0316
AGGGGTCG,-0.138
ATTGTATA,0.0902
CGACCGAG,0.119
CGTTACCA,-0.0623
GGTCTGGA,0.0111
ATGGTCGA,-0.07
CCTCAGGA,0.00717
GACGAACC,0.0216
CTAAGCAG,-0.00073
GGTGACAA,0.149
CCTCACCG,-0.0512
GTGGACGA,-0.0652
TACGTTCA,-0.00615
AGGGTACG,-0.0131
ACGACCCA,0.00701
CCGTCTTA,-0.195
AACCCCGC,0.0963
TATGGTCA,-0.00078
CCGTTAGC,-0.0212

# Sample 4 — technique: RNA Bind-n-Seq; form: RNA; matrix: in vitro; concentration: 365 nM; reference: no-protein control; reading: higher = stronger binding
# Target: RNA binding protein fox-1 homolog 2, RRM domain, GST-SBP tag (RBFOX2, Homo sapiens, UniProt O43251-10, residues 100-194)
# Setting: natural RNA segment, single round, ends assumed
# Constant ends, left off below: GGGAGUUCUACAGUCCGACGAUC … UGGAAUUCUCGGGUGCCAA
# Target sequence (chain): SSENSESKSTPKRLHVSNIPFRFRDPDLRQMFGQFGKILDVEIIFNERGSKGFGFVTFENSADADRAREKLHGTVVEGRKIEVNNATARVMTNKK
Oligonucleotide,RBNS enrichment (R)
UAUAAAUCUAAUUUUUCCAUAAAUUAGAUUUAUGAUAUUUUCAUAAAGCACUUGAUUAGUUUUUCAAGGCGUACCAUCACAAAGAUGCUUUCCUGCAGAGUUCUUUGUAU,0.433
GCUGAGCAGCUCAGGCUGUGGCCCUUACCUCCAGUCCUCACCUCAACCUGCGCUGCAGCCUCCCUCCCCCCUGCACAUCACUGGCAUGUGUGCUGCUUGACCACCCCCCC,1.48
UACAAUUAGUGUGUAGCAGAGCACAGCAGUUACGAGCUUGUAUAACGAGGACUCUGGAUCCAGAUUUAAGUAGAUUCAAACACCACUUAACACCAGUAACCGAUUUUAGG,0.688
AGUGCUCAAAAACAUCUGAUGACUGACUAAAGAUGCUAGGCGUGACACCGUUCCCUCCAAAAGCAGACCUCGGAAUCACUGCCAAAUAAGUAACUAGACGUUUACAGGCC,0.188
GAAGAGACUGCAAAGACACAUGAAGAUUUCUGAUCCUAAAAUGCUGUUUUGUUUACUUCCUGUCAAGAUAUCAACCCCUGUCCAAUUCAAACUAUAGUACUGUGUAAUUA,0.427
UUAUACUUUUGUACAUAUGAGAAAUCAAGGGAUUAGUGCAACCAGUAGAAAGCAUUGAAAUGACUGUCAUUAACCACACAGUCCUGGAGGCAGAGAUGCAGUUACCUACC,0.597
UUUUGUUAUAUCUGAACUAGUUGAACUGUGACUGACAGGUAAUCCUAAUAUAUCCAAAUCCAACUGAAUACCAAAUUGAGAUGGCAAAUUUUUGUUUGAUAUAAGUUAGC,0.211
AGACAUUUAUAAGCACUCUAAUGGAUAACAAUCCAAGAAUAAAUGAUUGUAAAAGAUGAUGCCGAAGAGUUGAUGUCAAUCUUUUUUUCCUAAGAAAAAAAGUCCGCGAG,0.518
CCCAAGGAACCUCCUGGGAGGGGGCCUGCAUUCUAUGUUGGUGGGAAUGGGACUGGGCUGACGCCCUGCAUUCAGCCUGUGCCUUUCCUGGGGUUUCUUUUCUGUUCUUU,0.586
UAUCUGCUGGGCAUCUGAUCUGCCUGCCACGAGGUCCAGACUCUUCUGCAUCCACCUAUGGCAUCUGGGUUUGCUGUCACCCUACUUUGUUGUGGCCUUCCUGGUGUAAG,0.763
GCUCUGGGGGCCACAGUGGGCUAUCUAGGCCCUCCCUCACCUGAGGCCCAGAGUGGACACAGCUGUUAAUUUCCACUGGCUAUGCCACUUCAGAGUCUUUCAUGCCAGCG,0.285
CUCAAUGGGGAGGGGCUGGAGACAGGCUCAGUAGACUAAGGGACUCCUUUAAAUUUCUUUUUGCUGGGACACUGGGUGAACUUGCGAUUGCUUUGACUAAAUCUGCUCAG,0.62

# Sample 5 — technique: universal PBM; form: double-stranded DNA, one strand shown; matrix: in vitro; concentration: not given; reading: higher = stronger binding
# Target: Sal-like protein 4, full length isoform B (SALL4, Homo sapiens, UniProt Q9UJQ4-2, residues 1-616)
# Setting: 8-mer, flanks averaged, mean of replicates
# Target sequence (chain): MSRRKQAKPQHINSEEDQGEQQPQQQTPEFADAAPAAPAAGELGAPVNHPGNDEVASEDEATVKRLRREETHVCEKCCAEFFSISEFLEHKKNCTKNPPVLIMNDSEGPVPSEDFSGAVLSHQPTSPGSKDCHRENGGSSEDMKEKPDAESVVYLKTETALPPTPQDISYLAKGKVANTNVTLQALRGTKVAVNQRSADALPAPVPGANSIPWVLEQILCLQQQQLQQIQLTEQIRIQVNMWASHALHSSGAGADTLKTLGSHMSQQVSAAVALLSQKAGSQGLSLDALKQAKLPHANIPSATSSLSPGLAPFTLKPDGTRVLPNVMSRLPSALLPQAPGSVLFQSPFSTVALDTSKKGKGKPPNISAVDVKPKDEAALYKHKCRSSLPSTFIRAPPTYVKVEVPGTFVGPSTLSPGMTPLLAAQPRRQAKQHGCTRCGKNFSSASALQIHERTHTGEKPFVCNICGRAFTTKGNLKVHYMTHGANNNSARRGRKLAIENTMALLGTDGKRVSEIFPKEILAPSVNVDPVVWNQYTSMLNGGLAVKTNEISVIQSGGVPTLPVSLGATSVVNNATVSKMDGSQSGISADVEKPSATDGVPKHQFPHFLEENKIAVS
Oligonucleotide,E-score
ATGGGGGC,-0.208
GAATAAGA,0.155
GGATAACC,-0.154
GCATTCCA,-0.0124
CCGAGTTA,0.004
ACTAGGCA,-0.058
CGTAACTC,-0.0477
ATATCGTA,0.266
CATTAACA,0.233
ATCTTTCG,-0.0489
CGTGTAAC,0.0246
CGCTTACA,-0.167
GCTTGGCA,-0.107
GAGATCTA,-0.0441
CCCAGAGC,-0.247
CAGAGCTG,-0.281
GCATATCA,0.212
GCCTGCAA,-0.0949
AACGTGAC,-0.129
GGAGCAAA,0.0921
CGATCGAA,-0.123
ATGAACAC,0.18

# Some of these lines once more (sample 5):
Oligonucleotide,E-score
ATGGGGGC,-0.208
GAATAAGA,0.155
GGATAACC,-0.154
GCATTCCA,-0.0124
CCGAGTTA,0.004
ACTAGGCA,-0.058
CGTAACTC,-0.0477
ATATCGTA,0.266
CATTAACA,0.233
